Assay results pooled from the literature.
Parts stem from different laboratories: compare values within a part only.

Series 1
Target: Interferon regulatory factor 7, full length, phosphomimetic (IRF7, Homo sapiens, UniProt Q92985, residues 1-503, S101K/S471D/S472D/S475D/S476D/S477D/S483D/S484D/S487D)
Technique: protein-binding microarray
Form: double-stranded DNA, one strand shown
Sample: in vitro
Tested at: 250 nM
Setting: 60-bp whole probe
Added: salmon DNA 0.4 mg/ml
Reference: random background probes
Reading: higher = stronger binding
Shared flanks, not repeated: GCCTAGCAC … GTCTTGATTCGCTTGACGCTGCTG
Construct (chain): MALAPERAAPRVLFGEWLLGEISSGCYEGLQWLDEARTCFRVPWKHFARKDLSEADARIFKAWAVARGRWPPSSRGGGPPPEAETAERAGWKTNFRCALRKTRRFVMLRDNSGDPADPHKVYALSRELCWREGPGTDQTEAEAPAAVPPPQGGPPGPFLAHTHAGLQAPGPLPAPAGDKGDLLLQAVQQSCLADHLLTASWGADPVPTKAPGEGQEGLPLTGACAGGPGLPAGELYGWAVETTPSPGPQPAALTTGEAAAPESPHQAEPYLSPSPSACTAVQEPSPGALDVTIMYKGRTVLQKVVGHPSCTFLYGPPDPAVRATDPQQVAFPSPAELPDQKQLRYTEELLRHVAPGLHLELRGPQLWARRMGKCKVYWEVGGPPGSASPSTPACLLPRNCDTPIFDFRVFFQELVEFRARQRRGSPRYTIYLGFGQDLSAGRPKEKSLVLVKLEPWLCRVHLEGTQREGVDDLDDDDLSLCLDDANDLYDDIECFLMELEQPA
Oligonucleotide | log fluorescence [z-score]
GATGGTTTCGACTTTCGGGACGTGCTA | 11.2
TATTGTGCAATTAGAGCCCTGTGCTAG | -0.176
GACGATCTCTGTATCGAGACGTGCTAG | 0.18
TTAGATATCGGTACTGGATTAGTGCTA | 0.321
TCAGTTCTTTTTTTCAAACTGTGCTAG | 1.6
TGAGGTTTCCTTCTCCTTTAGTGCTAG | 1.99
TTAGATTACGGGTATCGATTAGTGCTA | 0.952
TCAGATCACCGATTTCCTACTGTGCTA | 0.12
TCAGAGATTTTTCTCAAACTGTGCTAG | -0.423
CAATATTAGAGTCTCAACCCGTGCTAG | -0.0462
GACGGTCTCTTTTTCCTGACGTGCTAG | 1.19
TTCAGTTTCACTGCTGCCCTGTGCTAG | 0.525
CACGGACTGGGTATCGGGACGTGCTAG | -0.35
TCACCTCTAACTTCCCAACTGTGCTAG | 0.63
TTAGGTTTCGACACCGGGTTAGTGCTA | 2.98
TCAGGTATTTTTTTGTAACTGTGCTAG | 0.15
TTAGGTTTCGACAATGGGTTAGTGCTA | 2.69
TTAAGTATCGGGACTGGGTTAGTGCTA | -0.0289
TAAGAACTGGGGACTGGATTAGTGCTA | -0.132
GTGATCCGTCCGCCTCAGCCGTGCTAG | 0.279
GTAGGACTGGGGTTTCGGTTAGTGCTA | 5.02
TTAAGTATCGGTTTCGGTTAGTGCTAG | 10.9
TTAGGTATCGGTCTCGTTTAGTGCTAG | 2.79
TTAGGTCTCGGTATCGGATAGTGCTAG | 2.74

Series 2
Target: RING finger protein unkempt homolog, zinc fingers 1-6, GST-SBP tag (UNK, Homo sapiens, UniProt Q9C0B0, residues 30-357)
Sequence of UniProt Q9C0B0 (30-357, looked up): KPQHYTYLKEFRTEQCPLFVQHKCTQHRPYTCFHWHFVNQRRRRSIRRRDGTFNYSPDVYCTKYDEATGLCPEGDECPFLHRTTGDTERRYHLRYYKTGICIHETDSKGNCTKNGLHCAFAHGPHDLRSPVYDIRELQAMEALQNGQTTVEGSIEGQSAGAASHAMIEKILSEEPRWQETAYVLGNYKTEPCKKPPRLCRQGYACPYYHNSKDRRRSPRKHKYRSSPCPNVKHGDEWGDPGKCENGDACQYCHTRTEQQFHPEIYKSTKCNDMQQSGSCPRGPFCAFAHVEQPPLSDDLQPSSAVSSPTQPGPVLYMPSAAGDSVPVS
Technique: RNA Bind-n-Seq
Form: RNA
Sample: in vitro
Tested at: not given
Setting: RNA with constant flanks, human and mouse sites, ends assumed
Reference: input RNA pool
Reading: higher = stronger binding
Shared flanks, not repeated: GGGAGUUCUACAGUCCGACGAUC … CAACAGAGGAUUGAGCAUCA
Oligonucleotide | bound/input enrichment [ratio]
UCAUCUUCUGUUGCUUUUAAAUUAUCUGACAAUGGAGACUCUAUUCCUUAUACCAUCAAUAGGUAUUUGAGAGACUACCAAAGAGAAGGAACCCGGUUUCUUUAUGGACACUACAUCCAU | 0.27
GUUUCUUUCCUGAAAGAAGUAGAAUCUCCUUAUGAGGUCCAUGAUUAUAUCAGGGCCUAUUUAGGAGAUACUUCUGAGGCCAAGGAGUUUGCCAAGCAGUUCCUUGAGCGCCGUGCCAAA | 0.151
CUUUUCCCAGCGUGCCCCUCUUCAGUGCCUGCUCCAGGUUGAAGAAGCUUCUAGAUGGAUCCUUUCCAAAUUUGGUGUCUUUUCUACAAACUCUGUGCCUCAACCUCAAUUUCUAAGUGA | 0.379
GAUGCAGAAAAUAGUCAGGCACAGGAAACUUUUCCAAAGACUGUUGGACUAGAGGACCGAAGUCUAAAGAUCAUCAAAAGAAGCAAGAAACCAGACCUGCAGAUCUACCAGCCUGGAAGG | 0.373
UUUUCUUUUGGAGGUGGAUUAUUUGAUGACAUGUUUGAAGAUAUGGAGAAAAUGUUUUCUUUUAGUGGUUUUGACUCUACCAAUCAGCAUACAGUACAGACUGAAAAUAGAUUUCAUGGA | 0.332
GCUGGCCUCAGGAUUGCAGGACCUUUUGGGUUAAGUCUAGUGCAGCGUUUGAGGCCUGAUUUCAAGCGGAAGUACUCCUCUAUGUUUGAAGAUGACACGGUGACAGAGUACAUCUACCAC | 0.141
AUAAUUUUAUUGAGAUUCCAAACUUUUCGAUGAAAACAAUUUAACUCCUUUAUUGAUUAUCCUUAUCAAAAAAGAAAAAAAAAAAAGAAAAAGAAAGGAAGAAAUAAGGAAAGAAAGAAA | 0.574
GACGAUGUCAUACAGCGCAAGAGGGAGCUGUGGCCACCUGAGAAGCUUCAAGAGAUAGAGGAAUUCAAAGAGAGGUUACGGAAGCGGCGGGAGGAGAAGCUCCUUCGCGACGCCCAGCAG | 0.174
UUUGUAGAAAUCCUUGUCCCGGUGGCCGCUGCUGUCAAAAAUGAAGUCAACGUCCCCUGCCUCAGGAACUUUGUGGAGAGCCUGUACGAUACGACGUUGGAACUCUCCUCUCGGAAAAAG | 0.184
CUCAAACAGGAAGCCAACACCGAGCCGCGGAAACGGUUUCACUUGCUGUCUCGCCUUCGAAAAGCCGUGAAGCAUGCAGAGGAACUGGAGCGCUUGUGUGAGAGCAACCGGGUGGAUGCC | 0.105
AUCCAGGCCCUUCGCUGGGUGAGUGAGAAUAUUGCCUUCUUUGGAGGAGAUCCCCGUAGAAUUACUGUCUUUGGCUCUGGCAUCGGUGCAUCCUGUGUCAGUCUCCUUACACUGUCUCAU | 0.211

Series 3
Target: Ras GTPase-activating protein-binding protein 1, C-terminal RGG region (G3BP1, Homo sapiens, UniProt Q13283)
Sequence of UniProt Q13283 (whole entry, looked up): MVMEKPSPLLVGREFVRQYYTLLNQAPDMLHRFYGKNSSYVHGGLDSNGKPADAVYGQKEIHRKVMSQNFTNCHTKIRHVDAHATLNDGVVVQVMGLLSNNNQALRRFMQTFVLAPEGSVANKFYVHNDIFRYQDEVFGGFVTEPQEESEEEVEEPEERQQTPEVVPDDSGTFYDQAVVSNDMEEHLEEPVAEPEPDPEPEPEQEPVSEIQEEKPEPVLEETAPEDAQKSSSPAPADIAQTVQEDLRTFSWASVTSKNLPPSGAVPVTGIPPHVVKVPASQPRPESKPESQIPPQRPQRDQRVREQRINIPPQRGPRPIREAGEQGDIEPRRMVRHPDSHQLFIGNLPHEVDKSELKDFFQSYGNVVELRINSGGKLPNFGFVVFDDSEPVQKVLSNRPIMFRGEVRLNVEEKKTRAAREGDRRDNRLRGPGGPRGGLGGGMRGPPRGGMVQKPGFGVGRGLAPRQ
Technique: RNA Bind-n-Seq
Form: RNA
Sample: in vitro
Tested at: 1 µM
Setting: whole 134-nt RNA, ends assumed
Added: 150 mM KCl
Reference: input library
Reading: higher = stronger binding
Shared flanks, not repeated: GGGAGUUCUACAGUCCGACGAUC … UGGAAUUCUCGGGUGUCAAGG
Oligonucleotide | log2 enrichment
ACCAUGCAGGUGGGCAUCUUUGGGAAGUGGGGCAAGGGGGGGAUAGGGAGGGGGGUAACACUUUGGGAACAGGUGGUCCCAGGUCGUUAC | 2.15
UGAAAAGAACUGCUCUCCAUGGAGAGAGUAACUCUGUCCUUAUUAUCGGACCCCGAGGAUCAGGAAAAACUAUGGUAAAAGCUGUUGAUU | -1.78
AAGUCCUGUGCUACACAUCGUAUGUACCGAAUCGGUUUUUUUGGUUUUUUUGGAGGAAAGUAUUAUGUUACGCCGUUCGGAUCUGCACUU | -1.88
UAACUUUAGAGGAGGAUCUGAUGAAUAUGGCAGUGGACGUGGAUUUGGGGAUGGCUAUAAUGGGUAUGGAGGAGGACCUGGAGGUGGCAA | -1.24
CUGUGCUACACAUCGUAUGUACCGAAUCGGGUUUUUUUGGGUUUUUUUGGGUUUUUUUGGGGAAAGUAUUAUGUUACGCCGUUCGGAUCU | -1.01
CUGUGCUACACAUCGUAUGUACCGAAUCGGGGCCCCCCCGGGGCCCCCCCGGGCCCCCCCGGAAAGUAUUAUGUUACGCCGUUCGGAUCU | -1.9
CCUCAAGUCCUGUGCUACACAUCGUAUGUACCGAAUCGGGGUGGUGGGUGGGAAAGUAUUAUGUUACGCCGUUCGGAUCUGCACUUCCAG | 0.928
AGUCCUGUGCUACACAUCGUAUGUACCGAAUCGGGGAAAAGGGGAAAAGGAAAAGGGGAAAGUAUUAUGUUACGCCGUUCGGAUCUGCAC | -0.337
GCAGGAAGUAAAAACAAAUGGAAAUGCUUCGGAUAGUGGCAGGGGUGGGGAUUGCUAAGGAAAGGGUGGGAUGGGAGUGGGUAAAGAGUU | 2.01
UCAAGUCCUGUGCUACACAUCGUAUGUACCGAAUCGGGUUUGGGUGGGAAAGGGAAAGUAUUAUGUUACGCCGUUCGGAUCUGCACUUCC | 1.86
CUGUGCUACACAUCGUAUGUACCGAAUCGGGUUUUUUUGGGAAAAAAAGGGUUUUUUUGGGAAAGUAUUAUGUUACGCCGUUCGGAUCUG | -2.15
CACAGACAACACGCACCCACACAGACACAGAGGGAAGGGGUUGGGAUGGGGACAGGGUGCACAGCAGGGCGGGGUAUGACCCCAGCCCCU | -0.553
AAGUCCUGUGCUACACAUCGUAUGUACCGAAUCGGGGCCCGGGCCCGGGGCCCGGGGAAAGUAUUAUGUUACGCCGUUCGGAUCUGCACU | -2.56
UGGCCCUGGUGGCAUGCGGGGAGGAAGAGGUGGCCUCAUUGAUCGUGGUGGUCCCGGUGGAAUGUUCAGAGGUGGCCGUGGUGGAGACAG | 2.06

Series 4
Target: RNA binding protein fox-1 homolog 2, RRM domain, GST-SBP tag (RBFOX2, Homo sapiens, UniProt O43251-10, residues 100-194)
Technique: RNA Bind-n-Seq
Form: RNA
Sample: in vitro
Tested at: 365 nM
Setting: natural RNA segment, single round, ends assumed
Reference: no-protein control
Reading: higher = stronger binding
Shared flanks, not repeated: GGGAGUUCUACAGUCCGACGAUC … UGGAAUUCUCGGGUGCCAA
Construct (chain): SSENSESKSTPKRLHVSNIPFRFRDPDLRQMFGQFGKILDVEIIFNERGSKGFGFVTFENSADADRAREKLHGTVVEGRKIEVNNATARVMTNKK
Oligonucleotide | RBNS enrichment (R)
CCUGUUGUAACUGAUUGUGAACACUUUUAUGAGCUUUAAAAUAAAGUUCAUCUUAUGGUGUCAUUUCAAACUGUUGAUUUUGUCACUAAUUUAAAAAAUGAGAUGAGGGA | 0.393
GCGCCCCGGUGAGCGCGGGGACGAUUUUCUAACCUCGAGUGGACAGCGUCUGAGACUUGAGAACUGAGACACCGUGUUCUUCAGCACGCGUCCUGUAGCUAGAGGCUCGA | 0.63
GCCAGGAGAGGAUAAUUGGAAGUUCUCUUGGACCUUACCUUAUGUGCCUUUCUUCAUUGCUGAUUUUAAUCUGUAUCCUUUCACUGUAAUAAACUGUAACUAUGAGUGCA | 1.4
CAUUUUGCUCAAAAGUUUUUAAGAAAUGACAACAAAAAAAGCAAGUUACAAGAAUGUGGCAAUUCUAUUUGUCCAAGAGCAUUCUUACACAACUUUCUUUUGUAAAUUUU | 0.586
UCUGGCUGGGCUGCUCAGGGUGACAUCAUAGCACCUCUGGGAAUGCUGCCGAAGAACCCCAUGGUCCUCCCACAAUACCAAAGCUUCCCUGUUUCCCCUUCUGCCUCCGU | 0.746
GAUGCCUGCCAGGAAUGAGCAAGCUCUGUUGCUCGGGAGCCUCUUGUCACCUUCUUGGACUUAUUCCCCACCUGAUACCUUAUAGAGAAAAGUGUGAAUUCAGGUGGAGA | 0.586
GCUGCUUCGUCCCACUGCACCGCCUGGCUGAGGGCGUUAGGGGCUGUGCCUCUUGUGAGGGCCAUUUGGGACCUCCCUGGGGCACUGCACAAUUGAUAGUGUACCAAUAG | 0.307
AACAUGCUACAGUAGCUAAGAAGUAUUAAAACUAUAUACAUCCAUAUAAAGAUGAAAUAUGAACUAUCUCAUUAGAAGUCAUAGUUGACCACAGACAUGUUAUUCUUCUG | 0.259
AGCCCCACAGCCUGAGCCUCCCAGCUGCCAUGUGCCUGUUGCACACCUGCACACACGCCCUGGCACACAUACACACAUGCGUGCAGGCUUGUGCAGACACUCAGGGAUGG | 0.578
AGCCACACACAGCUUGCUGCUGUCGUUCUAGCCUUGCCAGUGCACUGUAGAUGCUGGCCUGUCACUCUAUACCUCUCGCUUUAGUUAACCGGCAUGGAUGUGACCGGAAU | 1.18
GACCAGGCUGAGUCAGUAAAGGAGGCGCGGGCCUCGACGCCCACGCUGGCAGCUUUGACAGAAACUCUUCCGUGGUCGGCCUUUCACCUCUUCACUUUCGCUUGGUCCCA | 0.319
CCACCCGUCCAGUACCACCAAAGUAGUUCUCUGUCAUGUGUGUUCCCUGCCUGCACAAACCUACAUGUACAUACCAUGGAUUAGAGACACUUGCAGGACUGAAAGGCUGC | 0.988
